Results collected from several papers.
Numbers after ± are the reported error.

Compound = CN1CCN(S(=O)(=O)c2cc([N+](=O)[O-])ccc2N(CCOS(C)(=O)=O)CCOS(C)(=O)=O)CC1; system = naive female NSG mice, plasma; setting = intraperitoneal, 25 mg/kg; Cmax = 9.33 µM
Compound = CNc1nc(N)ncc1-c1cn([C@@H]2O[C@H](CO)[C@@H](O)[C@@]2(C)F)cn1; system = CD-1 mice, both sexes, serum; setting = 100 mg/kg single dose; Cmax = 51000 ng/mL
Compound = COc1cc(C)[nH]c(=O)c1CNC(=O)c1c(C)n([C@H](C)C2CCN(CC(F)(F)F)CC2)c2ccccc12; system = female CB17 SCID mice, HT-1376 xenograft, plasma; setting = 75 mg/kg, day 1; Cmax = 50800 ng/mL
Compound = CCN(CC)CCCC[C@H](NC(=O)[C@H](CC(C)C)NC(=O)[C@H](C)NC(=O)[C@H](Cc1ccccc1)NC(=O)c1ccc(C(C)(C)C)cc1)C(=O)N[C@@H](CO)C(=O)OC; system = Swiss albino mice, male, blood; setting = intraperitoneal, 10 mg/kg; Cmax = 580 ng/mL
Compound = OCc1ncc2n1-c1ccc(Cl)cc1C(c1ccccc1F)=NC2; assay = refers to: 1'-hydroxymidazolam; system = wild-type mice, plasma; setting = iv, 500 mg/kg, 14 days, with: midazolam 0.3 mg/kg; Cmax = 0.196 ± 0.038 µM
Compound = CC(=O)c1c(C)c2cnc(Nc3ccc(N4CCNCC4)cn3)nc2n(C2CCCC2)c1=O; system = G-Smo mice, medulloblastoma, tumour; setting = intraperitoneal, 25 mg/kg, single dose at P10; Cmax = 3.28 µg/g
Compound = CC(C)[C@H](O)C(=O)N[C@H]1Cc2ccc3c(c2)[C@]2(C4=C(c5nc(CO)co5)N=C(O4)[C@H](C(C)(C)C)NC1=O)c1cc(F)ccc1N[C@@H]2O3; system = NSG mice, lung; setting = intravenous, 10 mg/kg, single dose at MTD, with: paclitaxel 40 mg/kg; Cmax = 2140 ng/mL
Compound = C[C@H]1COCCN1c1nc(NCc2cccnc2C(F)(F)F)c2cccnc2n1; system = SCID BALB/c mice; setting = oral, 90 mg/kg; Cmax = 46600 ng/mL
Compound = OC(c1ccc(F)cc1)C(F)(F)CCN1CCC(O)(c2ccc(Cl)cc2)CC1 (racemic); system = female CD-1 mice, brain; setting = intraperitoneal, 10 mg/kg; Cmax = ~0.17 µg/g

A few entries again:
Compound = CCN(CC)CCCC[C@H](NC(=O)[C@H](CC(C)C)NC(=O)[C@H](C)NC(=O)[C@H](Cc1ccccc1)NC(=O)c1ccc(C(C)(C)C)cc1)C(=O)N[C@@H](CO)C(=O)OC; system = Swiss albino mice, male, blood; setting = intraperitoneal, 10 mg/kg; Cmax = 580 ng/mL
